# Earlier results, collected from citations in different studies.
# Numbers after ± are the reported error.
Compound,cell line,assay,conditions,scale,quantity,value
CC(C)C1=C(O)C(=O)C2=C(C1=O)[C@H](O)[C@@H](O)[C@H]1C(C)(C)CCC[C@]21C,HCT-116,,,,GI50,> 30 µM
Cc1cc(N2CC[C@@](C#N)(C3(C)CC3)C2=O)cc(C(=O)NCc2cc(F)cc(-c3cnn(C)c3)c2)n1,MDA-MB-231,cytotoxicity,,,CC50,0.134 µM
O=C(NCc1ccc(F)cc1F)c1cn2c(c(O)c1=O)C(=O)N(CCCCCCO)CC2,HOS,"ATP level, 50% ATP reduction",,,CC50,> 250 µM
OC[C@H]1O[C@@H](OCCCCCCCCCCC(F)(F)C(F)(F)C(F)(F)C(F)(F)F)[C@H](O)[C@@H](O)[C@@H]1O,B16-F10,"cytotoxicity, MTT",24 h,,EC50,32 µM
O=C(Cn1cc(CNC(=O)c2c3ccccc3nc3ccccc23)nn1)Nc1cccc(Br)c1,HDF,,,no toxicity up to value,cytotoxicity,> 200 µM
COc1ccc(NC(=O)/C=C(C)/C=C/C=C(C)/C=C/C2=C(C)CCCC2(C)C)cc1,malignant cell lines,,concentration not given,,cytotoxicity,not toxic
O=C(NCc1ccc(F)cc1F)c1cn2c(c(O)c1=O)C(=O)N(CCCCO)CC2,HOS,"ATP level, 50% ATP reduction",,,CC50,> 250 µM
CC(=O)O[C@@H]1C[C@H]2C(C)(C)[C@H](O)CC[C@]2(C)[C@H]2CC[C@]34C[C@]3(CC[C@H]4[C@@H](C)C[C@@H](O)[C@H](O)C(C)(C)O)[C@@]21C,KB-C2 colchicine-resistant,,concentration not given,,cytotoxicity,toxic
CC(C)N1CCn2cc(C(=O)NCc3ccc(F)cc3F)c(=O)c(O)c2C1=O,HOS,"ATP level, 50% ATP reduction",,,CC50,163 ± 8 µM
CC(=O)O[C@H]1C2=C(C(=O)C(OC(=O)c3ccc([N+](=O)[O-])cc3)=C(C(C)C)C2=O)[C@@]2(C)CCCC(C)(C)[C@@H]2[C@@H]1O,MOLT-3,,,,GI50,5 to 10 µM
O=c1c(O)ccccc1O,HepDES19,,up to 100 µM,,cytotoxicity,not toxic
CC(=O)O[C@H]1C2=C(C(=O)C(OC(=O)c3ccc(Cl)cc3)=C(C(C)C)C2=O)[C@@]2(C)CCCC(C)(C)[C@@H]2[C@@H]1O,MCF7,cell growth,,,GI50,≤ 5 µM
CNc1c(C)n(C)n(-c2ccccc2)c1=O,primary human hepatocytes,refers to: CYP2B6,concentration not given,relative to: untreated,protein level,increased
CCC(=O)OC1=C(C(C)C)C(=O)C2=C(C1=O)[C@@]1(C)CCCC(C)(C)[C@@H]1[C@H](OC(=O)CC)[C@H]2OC(C)=O,MEL1,,,,GI50,10 to 30 µM
Cc1cc(N2CC[C@@](C#N)(C3CC3)C2=O)cc(NC(=O)Cc2ccccc2)n1,ARPE-19,cytotoxicity,,,CC50,0.672 µM
CC(=O)O[C@@H]1[C@@H](OC(C)=O)C2=C(C(=O)C(O)=C(C(C)C)C2=O)[C@@]2(C)CCCC(C)(C)[C@H]12,MEL1,,,,GI50,10 to 30 µM
COc1cncc(-c2cc(F)cc(CNC(=O)c3cc(N4CC[C@@](C#N)(C5CC5)C4=O)cc(C)n3)c2)c1,MDA-MB-231,cytotoxicity,,,CC50,0.393 µM
COc1ccc(Oc2ccc([C@@H](C)N(C)c3ncc4c(N)nc(N)nc4n3)cc2)cc1,HEK293,,concentration not given,,activity,inactive
CCOC(=O)CNC(=O)CN1C(=O)S/C(=C\c2ccc(C)cc2)C1=O,Caco-2,,concentration not given,,cytotoxicity,not toxic
O=C1c2ccccc2-c2c1c1ccc([N+](=O)[O-])cc1c(=O)n2C[C@H](O)[C@@H](O)[C@H](O)[C@H](O)CO,SN12C,cell growth,renal cancer panel,,GI50,17.7 µM
CN1CCn2cc(C(=O)NCc3ccc(F)cc3F)c(=O)c(O)c2C1=O,HOS,"ATP level, 50% ATP reduction",,,CC50,> 250 µM
CC(C)=CCC[C@](C)(O)[C@H]1CC[C@]2(C)[C@@H]1[C@H](O)C[C@@H]1[C@@]3(C)CC[C@H](O)C(C)(C)[C@@H]3CC[C@]12C,human keratinocytes,cytotoxicity,,,NOAEL,4 µM
O=C(NCc1ccc(F)cc1F)c1cn2ccn(CCCCO)c(=O)c2c(O)c1=O,HOS,"ATP level, 50% ATP reduction",,,CC50,> 250 µM
CCOC(=O)C(CC)NC(=O)CN1C(=O)S/C(=C\c2ccc(C)cc2)C1=O (centres unmarked),Caco-2,,concentration not given,,cytotoxicity,not toxic
O=S(=O)(c1ccccc1)N1CCCCC1,Caco-2,,,relative to: Papp B-A over Papp A-B,efflux ratio,0.64
CC(=O)O[C@H]1C2=C(C(=O)C(O)=C(C(C)C)C2=O)[C@@]2(C)CCCC(C)(C)[C@@H]2[C@@H]1O,MCF7,cell growth,,,GI50,5 to 10 µM
O=C1c2ccccc2-c2c1c1ccc([N+](=O)[O-])cc1c(=O)n2C[C@H](O)CO,UACC-62,cell growth,melanoma cancer panel,,GI50,0.098 µM
CC(=O)OC1=C(C(C)C)C(=O)C2=C(C1=O)[C@@]1(C)CCCC(C)(C)[C@@H]1[C@H](OC(C)=O)[C@H]2OC(C)=O,MEL1,,,,GI50,5 to 10 µM
COCCCCCCN1CCn2cc(C(=O)NCc3ccc(F)cc3F)c(=O)c(O)c2C1=O,HOS,"ATP level, 50% ATP reduction",,,CC50,> 250 µM

# Repeated from above:
Compound,cell line,assay,conditions,scale,quantity,value
CCOC(=O)C(CC)NC(=O)CN1C(=O)S/C(=C\c2ccc(C)cc2)C1=O (centres unmarked),Caco-2,,concentration not given,,cytotoxicity,not toxic
O=S(=O)(c1ccccc1)N1CCCCC1,Caco-2,,,relative to: Papp B-A over Papp A-B,efflux ratio,0.64
